Results of several laboratories.
Compare with care: the assays were run in different laboratories. Several values in a cell are separate wells, animals, samples, runs or records. Numbers after ± are the reported error. In brackets after ≈: the same amount, converted by molar mass.

The IC50 of `Cc1[nH]c(C)c(-c2ccc(OCc3cccc(C(F)(F)F)c3)nc2)c(=O)c1Br` is reported as 86 ± 25 nM (Plasmodium yoelii; 17XL; 384-well).
`CN[C@H](CC(C)C)C(=O)N[C@H]1C(=O)N[C@@H](CC(N)=O)C(=O)N[C@H]2C(=O)N[C@H]3C(=O)N[C@H](C(=O)N[C@H](C(=O)O)c4cc(O)cc(O)c4-c4cc3ccc4O)[C@H](O)c3ccc(c(Cl)c3)Oc3cc2cc(c3O[C@@H]2O[C@H](CO)[C@@H](O)[C@H](O)[C@H]2O[C@H]2C[C@](C)(N)[C@H](O)[C@H](C)O2)Oc2ccc(cc2Cl)[C@H]1O` has an MBC of 2 µg/mL (≈ 1.38 µM) (Staphylococcus aureus; broth microdilution; methicillin-susceptible isolates).
The plaque reduction of `CC(C)n1ncc2c(C(=O)NCC3(C)CNC3)cc(C3CC3)nc21` is reported as 97.8% and 93.8% (enterovirus D68; recombinant US/MO/14-18947 wild type; 500 nM).
`O=C(Nc1ccc([N+](=O)[O-])cc1Cl)c1cc(Cl)ccc1O` has an IC50 of 360 nM (herpes simplex virus 1; viral replication; K26, GFP-expressing, 3D bioprinted skin, submerged).
For `CCOC1=CC(c2ccc[nH]2)=N/C1=C\c1cc(Cc2ccc(OC(F)(F)F)cc2)c(C)[nH]1.Cl`, the parasitaemia reduction was 100% (Plasmodium yoelii; CF1 mice; oral, 25 mg/kg daily for 4 days, day 5; relative to: vehicle).
The MIC range of `CN[C@H](CC(C)C)C(=O)N[C@H]1C(=O)N[C@@H](CC(N)=O)C(=O)N[C@H]2C(=O)N[C@H]3C(=O)N[C@H](C(=O)N[C@H](C(=O)O)c4cc(O)cc(O)c4-c4cc3ccc4O)[C@H](O)c3ccc(c(Cl)c3)Oc3cc2cc(c3O[C@@H]2O[C@H](CO)[C@@H](O)[C@H](O)[C@H]2O[C@H]2C[C@](C)(N)[C@H](O)[C@H](C)O2)Oc2ccc(cc2Cl)[C@H]1O` is reported as 0.25 µg/mL (≈ 0.173 µM) (Streptococcus salivarius; broth microdilution; clinical isolate).
The parasite number of `CCc1nn(C)c2nc(-c3ccc(C(=O)O)cc3)nc(NCc3ccc(F)cc3)c12` is reported as 47.9% and 47.2% and 41.9% and 44% (Cryptosporidium parvum; HCT-8; EC90, 24 h; relative to: DMSO control).
`CN[C@H](CC(C)C)C(=O)N[C@H]1C(=O)N[C@@H](CC(N)=O)C(=O)N[C@H]2C(=O)N[C@H]3C(=O)N[C@H](C(=O)N[C@H](C(=O)O)c4cc(O)cc(O)c4-c4cc3ccc4O)[C@H](O)c3ccc(c(Cl)c3)Oc3cc2cc(c3O[C@@H]2O[C@H](CO)[C@@H](O)[C@H](O)[C@H]2O[C@H]2C[C@](C)(N)[C@H](O)[C@H](C)O2)Oc2ccc(cc2Cl)[C@H]1O` has an MIC50 of 0.25 µg/mL (≈ 0.173 µM) (Streptococcus pyogenes; ATCC 19615; 1 strain).
`Nc1nc(-c2ccccc2)nc2[nH]nc(Nc3ccc(C(F)(F)F)cc3)c12` has a clinical score of 0.8 (coxsackievirus B3; 31-1-93, NMRI mice, CVB3 chronic myocarditis; oral, 100 mg/kg twice daily, day 14, dosed days 3 to 10, score scale 0 to 7; direction not given).
The plaque reduction of `Cc1ccc(S(=O)(=O)Nn2c(N)c(C#N)cc(-c3nc4ccccc4s3)c2=O)cc1` is reported as 10% (herpes simplex virus 1; viral replication, plaque; Vero; non-toxic dose, mean of three titres).
With `COC1=C(OC)/C(=C/c2[nH]c(Cc3ccc(OC(F)(F)F)cc3)cc2Cc2ccc(OC(F)(F)F)cc2)N=C1c1ccc[nH]1.Cl` the parasitaemia reduction was 98.5% (Plasmodium yoelii; CF1 mice; oral, 10 mg/kg daily for 4 days, day 5; relative to: vehicle).
For `COC(=O)[C@H](Cc1ccc(O)cc1)NCc1cc2ccccc2nc1SC`, the growth was 97.9% (Pseudomonas aeruginosa; 2 µg/mL, without pentamidine; relative to: control).
For `Oc1c(Br)cc(Br)c2cccnc12`, the IC50 was 10200 nM (Trichomonas gallinae; CCK-8; trophozoites; 24 h).
For `COc1c(N2C[C@@H]3CCCN[C@@H]3C2)c(F)cc2c(=O)c(C(=O)O)cn(C3CC3)c12`, the MIC90 was 1 µg/mL (≈ 2.49 µM) (Streptococcus pneumoniae; broth microdilution; penicillin-resistant isolates).
`CCOc1ccc2cc(-c3nn(CC4CCNCC4)c4ncnc(N)c34)ccc2c1` — result for “% of maximum PPE”: 25.5% (Theileria equi; hydroethidine flow cytometry; USDA Florida; 6 µM, 72 h).
With `COC(=O)Nc1nc2cc(C(=O)c3ccc(F)cc3)ccc2[nH]1` the IC50 was 7180 nM (Trichomonas gallinae; CCK-8; trophozoites; 24 h).
For `CC1(C)S[C@@H]2[C@H](NC(=O)[C@H](N)c3ccccc3)C(=O)N2[C@H]1C(=O)O`, the MIC was greater than 16 µg/mL (Citrobacter freundii; clinical isolate RKI-No_604/16).
The EC50 of `COc1ccnc(C(=O)NC(CO)C(=O)O)c1O` (racemic) is reported as 4.4 µg/mL (Pseudokirchneriella subcapitata; growth rate).
`COCC(=O)N1CCCC(C(=O)NCc2nc(-c3ccccc3)cs2)C1` (racemic) has an EC50 of 97 nM (Plasmodium falciparum; 72 h).
The ED90 of `COC1=CC(c2ccc[nH]2)=N/C1=C\c1[nH]c(Cc2ccc(OC(F)(F)F)cc2)cc1Cc1ccc(OC(F)(F)F)cc1` is reported as 2.82 mg/kg/day (Plasmodium yoelii; parasitaemia; mouse; 4-day treatment, parasitaemia day 5).
`CNC(C)C1CCC(N)C(OC2C(N)CC(N)C(OC3OCC(C)(O)C(NC)C3O)C2O)O1` (stereo not drawn) gave an MIC of greater than 8 µg/mL (Citrobacter freundii; clinical isolate RKI-No_604/16).
`Cc1[nH]c(C)c(-c2ccc(Nc3ccc(C(F)(F)F)cn3)cc2)c(=O)c1Br` has an IC50 of 48 ± 8 nM (Plasmodium yoelii; 17XL; 384-well).
`CCOC1=CC(c2ccc[nH]2)=N/C1=C\c1cc(Cc2ccc(Cl)cc2)c(C)[nH]1.Cl` gave a parasitaemia reduction of 100% (Plasmodium yoelii; CF1 mice; oral, 25 mg/kg daily for 4 days, day 5; relative to: vehicle).
For `Cc1ncc([N+](=O)[O-])n1CCO`, the IC50 was 18600 nM (Trichomonas gallinae; CCK-8; trophozoites; 24 h).
With `Cc1cc(=O)c(-c2ccc(OCc3ccc(OC(F)(F)F)cc3)cc2)c(C)[nH]1` the IC50 was 710 ± 258 nM (Plasmodium yoelii; 17XL; 384-well).
The plaque reduction of `N#Cc1cc(-c2nc3ccccc3s2)c(=O)n(NS(=O)(=O)c2ccccc2)c1N` is reported as 63.3% (coxsackievirus B4; viral replication, plaque; BGM; non-toxic dose, mean of three titres).
The MIC of `CC(C)C[C@@H]1NC(=O)[C@@H](Cc2ccccc2)NC(=O)[C@H](CCN)NC(=O)[C@@H](NC(=O)[C@H](CCN)NC(=O)[C@@H](N)[C@@H](C)O)CCNC(=O)[C@H]([C@@H](C)O)NC(=O)[C@H](CCN)NC(=O)[C@H](CCN)NC1=O` is reported as 12.5 µg/mL (Escherichia coli; MIC of compound in combination, checkerboard; 552100; concentration not given, together with: rifampicin).
With `O=[N+]([O-])c1ccc2[nH]c(CNCC34CC5CC(CC(C5)C3)C4)nc2c1` the MIC50 was 2 µg/mL (≈ 5.87 µM) (Streptococcus pneumoniae; clinical isolates).
`Nc1ccccc1C(=O)NCCCCNc1ccnc2ccccc12` gave an inhibition of 23.1% (Chromobacterium violaceum; violacein production; ATCC 31532; 40 µM, quorum sensing reporter).
For `C=CC[C@@H]1c2ccc(OC)c(OC)c2CN2CCc3cc4c(cc3[C@H]12)OCO4`, “relative wound size” read 0.81 and 0.41 and 0.57 and 0.4 and 0.84 (Staphylococcus aureus; P2rx7+/+ mice, skin wound infection; dose not given, day 3; relative to: day 0).
With `CC[C@H]1OC(=O)[C@H](C)[C@@H](O[C@H]2C[C@@](C)(OC)[C@@H](O)[C@H](C)O2)[C@H](C)[C@@H](O[C@@H]2O[C@H](C)C[C@H](N(C)C)[C@H]2O)[C@](C)(O)C[C@@H](C)CN(C)[C@H](C)[C@@H](O)[C@]1(C)O` the inhibition was 92.9% (Chromobacterium violaceum; violacein production; ATCC 31532; 400 µM, quorum sensing reporter).
For `CCC1=C(CC)/C(=C/c2[nH]c(Cc3ccc(Cl)cc3)cc2Cc2ccc(Cl)cc2)N=C1c1ccc[nH]1`, the ED90 was 4.17 mg/kg/day (Plasmodium yoelii; parasitaemia; mouse; 4-day treatment, parasitaemia day 5).
The IC50 of `Cc1nc2ccc(-c3ccc(OC(F)(F)F)cc3)cc2c(O)c1C#N` is reported as 274 ± 62 nM (Plasmodium yoelii; 17XL; 384-well).
With `CCOc1ccc2cc(-c3nn(CC4CCN(C)CC4)c4ncnc(N)c34)ccc2c1` the EC50 was 5720 nM (Theileria equi; parasite growth, hydroethidine flow cytometry; USDA Florida; 72 h).
`N=C(N)c1ccc(OCCCCCOc2ccc(C(=N)N)cc2)cc1` — result for “MIC of compound in combination”: 50 µg/mL (Escherichia coli; checkerboard; mcr-2 polymyxin-resistant; concentration not given, 20 h, together with: rifampicin).
`CC(=O)N1CCC(C(=O)N2CCN3C(=O)c4cc(-c5ccccc5)ccc4NC(=O)C3C2)CC1` (stereo not drawn) has a mean lifespan of 28.2 days (Caenorhabditis elegans; N2; 100 µM).
For `CCOc1ccc2cc(-c3nn(CC4CCN(C)CC4)c4ncnc(N)c34)ccc2n1`, “% of maximum PPE” read 10.2% (Theileria equi; hydroethidine flow cytometry; USDA Florida; 30 µM, 72 h).
For `c1cc(CN2CCN(c3ccncc3)CC2)cc(-c2ccc(-c3nc4ccccc4[nH]3)cc2)c1`, the IC50 was greater than 20000 nM (Plasmodium yoelii; 17XL; 384-well).
`COC(=O)N[C@H](C(=O)N1CCC[C@H]1c1ncc(-c2ccc(-c3ccc(-c4cnc([C@@H]5CCCN5C(=O)[C@@H](NC(=O)OC)C(C)C)[nH]4)cc3)cc2)[nH]1)C(C)C` has an EC50 of greater than 29000 nM (Coxsackievirus A21; cell protection; MRC5).
The IC50 of `C=Cc1cc(NC(=O)N2CCc3cc(OC)c(C(F)(F)F)cc32)cc(-c2cccnc2)c1` is reported as greater than 20000 nM (Plasmodium yoelii; 17XL; 384-well).
`O=C(Nc1cccc(C2=NCCN2)c1)Nc1cccc(C2=NCCN2)c1` gave an EC50 of 5 nM (Theileria equi; parasite growth, flow cytometry; equine erythrocytes, USDA Florida; 72 h).
With `O=c1c2c([nH]c3ccc(Oc4ccc(OC(F)(F)F)cc4)cc13)CCCC2` the ED50 was 6.8 mg/kg (Plasmodium yoelii; antimalarial activity; CF1 mouse; oral, once daily for 4 days).
The IC50 of `N#Cc1ccc(N[C@@H](CC2CCCCC2)C(=O)N[C@@H]2CCCc3ccccc32)c2ccccc12` is reported as greater than 20000 nM (Plasmodium yoelii; 17XL; 384-well).
`CN[C@H](CC(C)C)C(=O)N[C@H]1C(=O)N[C@@H](CC(N)=O)C(=O)N[C@H]2C(=O)N[C@H]3C(=O)N[C@H](C(=O)N[C@H](C(=O)O)c4cc(O)cc(O)c4-c4cc3ccc4O)[C@H](O)c3ccc(c(Cl)c3)Oc3cc2cc(c3O[C@@H]2O[C@H](CO)[C@@H](O)[C@H](O)[C@H]2O[C@H]2C[C@](C)(N)[C@H](O)[C@H](C)O2)Oc2ccc(cc2Cl)[C@H]1O` gave a post-antibiotic effect of 1.19 h (Staphylococcus aureus; MRSA ATCC 43300; 4 × MIC).
The parasitaemia reduction of `Cc1[nH]c(/C=C2\N=C(c3ccc[nH]3)C=C2OCc2ccccc2)cc1Cc1ccc(OC(F)(F)F)cc1` is reported as 100% (Plasmodium yoelii; CF1 mice; oral, 25 mg/kg daily for 4 days, day 5; relative to: vehicle).
The IC50 of `O=C(c1cc(-c2ccccc2O)on1)N1CCN(C(c2ccccc2)c2ccccc2)CC1` is reported as 558 ± 83 nM (Plasmodium yoelii; 17XL; 384-well).
With `COC1=CC(c2ccc[nH]2)=N/C1=C\c1cc(Cc2ccc(OC(F)(F)F)cc2)c(C)[nH]1.Cl` the parasitaemia reduction was 100% (Plasmodium yoelii; CF1 mouse; oral, 80 mg/kg single dose, day 5).
`Cc1cc(Nc2ccc(S(F)(F)(F)(F)F)cc2)n2nc(C(C)(F)F)nc2n1` — result for “PC50 parasite clearance time mean”: 19 h (Plasmodium falciparum; microscopy; P. falciparum malaria patients; oral, 250 mg).
